# Assay results gathered from unrelated publications.
# Protocols differ between the studies behind these lines. ± gives the spread as reported.
# MDM2: E3 ubiquitin-protein ligase Mdm2 (MDM2, Homo sapiens, UniProt Q00987)
# MDM2 L33E L33E; with p53: E3 ubiquitin-protein ligase Mdm2, L33E; with p53 (MDM2, Homo sapiens, UniProt Q00987, L33E)
# MDM2 N-terminal domain 17-125: E3 ubiquitin-protein ligase Mdm2, N-terminal domain 17-125 (MDM2, Homo sapiens, UniProt Q00987)
Compound,target,assay,system,setting,quantity,result
CCOC(=O)[C@@H]1Cc2c(cc([N+](=O)[O-])cc2[N+](=O)[O-])[C@@H](O)[C@@]12C(=O)Nc1ccc(Br)cc12,MDM2,,,,IC50,1300 ± 400 nM
CC(C)Oc1cc(NC(=O)[C@@H](Cc2ccccc2)NC(=O)c2ccc(N)c(OCc3ccccc3)c2)ccc1C(=O)NCC(=O)O,MDM2 L33E L33E; with p53,fluorescence anisotropy competition,,pH 7.5,IC50,9200 ± 400 nM
CC(=O)N[C@@H](CCCCN)C(=O)N[C@@H](CCCCN)C(=O)N[C@@H](CCCCN)C(=O)NCCCCCC(=O)N[C@H](C(=O)N[C@@H](CO)C(=O)N[C@@H](Cc1ccccc1)C(=O)N[C@]1(C)CCCCCCCCCCC[C@@](C)(C(=O)N[C@@H](CCC(=O)O)C(=O)N[C@@H](CC(N)=O)C(=O)N[C@@H](Cc2ccccc2)C(N)=O)NC(=O)[C@H](CC(C)C)NC(=O)[C@H](CC(C)C)NC(=O)[C@H](C)NC(=O)[C@H](Cc2c[nH]c3ccccc23)NC(=O)[C@H](Cc2ccc(O)cc2)NC(=O)[C@H](CCC(=O)O)NC1=O)[C@@H](C)O,MDM2,"cell-free assay, FP",,pH 7.4,Kd,227 nM
CC(=O)N(Cc1ccccc1)[C@@H](C)C(=O)N(C)CC(=O)N(Cc1c[nH]c2cc(Cl)ccc12)[C@@H](C)C(=O)N(C)CC(=O)N(CCC(C)(C)C)[C@@H](C)C(=O)N1CCNCC1,MDM2 N-terminal domain 17-125,"binding, fluorescence anisotropy",PBS with Tween,"25 °C, fluorescein-labelled peptoid, 10 nM",Kd,750 nM
CC(C)Oc1cc(NC(=O)[C@H](Cc2c[nH]c3ccccc23)NC(=O)c2ccc(N)c(OCc3ccccc3)c2)ccc1C(=O)NCC(=O)O,MDM2 L33E L33E; with p53,fluorescence anisotropy competition,,pH 7.5,IC50,11500 ± 300 nM
CC(=O)N(Cc1ccccc1)[C@@H](C)C(=O)N(C)[C@@H](C)C(=O)N(Cc1c[nH]c2cc(Cl)ccc12)[C@@H](C)C(=O)N(C)[C@@H](C)C(=O)N(CCC(C)(C)C)[C@@H](C)C(=O)N1CCNCC1,MDM2,"binding, ITC",,,Kd,17.5 nM
CC(C)Oc1cc(C(=O)NCC(=O)O)ccc1NC(=O)[C@H](Cc1ccccc1)NC(=O)c1ccc(N)c(OCc2ccccc2)c1,MDM2 L33E L33E; with p53,fluorescence anisotropy competition,,pH 7.5,IC50,21200 ± 2500 nM
CC(=O)N(Cc1ccccc1)[C@@H](C)C(=O)N(C)[C@@H](C)C(=O)N(Cc1c[nH]c2cc(Cl)ccc12)[C@@H](C)C(=O)N(C)[C@@H](C)C(=O)N(CCC(C)(C)C)[C@@H](C)C(N)=O,MDM2,"ligand displacement, FP",,,Ki,340 nM
CC(C)C[C@@H](C(N)=O)N1CCN(C(=O)[C@H](Cc2c[nH]c3ccccc23)N2CCN[C@@H](CCCCN)C2=O)[C@@H](Cc2ccccc2)C1=O,"E3 ubiquitin-protein ligase Mdm2, N-terminal domain (MDM2, Homo sapiens, UniProt Q00987)","binding, competitive fluorescence polarization",,added: fluorescein-p53 peptide probe,Kd,≥ 200000 nM
CC(=O)N(CC(=O)N(C)[C@@H](C)C(=O)N(Cc1c[nH]c2cc(Cl)ccc12)[C@@H](C)C(=O)N(C)[C@@H](C)C(=O)N(CCC(C)(C)C)[C@@H](C)C(=O)N1CCNCC1)Cc1ccccc1,MDM2 N-terminal domain 17-125,"binding, fluorescence anisotropy",PBS with Tween,"25 °C, fluorescein-labelled peptoid, 10 nM",Kd,140 nM
"CCOC(=O)[C@@H]1Cc2c(cc([N+](=O)[O-])cc2[N+](=O)[O-])[C@H](O)[C@]12C(=O)Nc1ccc(Cl)cc12 (single isomer, unassigned)",MDM2,,,,IC50,130 ± 40 nM
CC(C)C[C@H](NC(=O)[C@H](CCC(N)=O)NC(=O)[C@@H]1CSSC[C@@H]2NC(=O)[C@H](CC(N)=O)NC(=O)[C@@H](N)CSSC[C@H](NC(=O)[C@H](Cc3ccccc3)NC(=O)[C@H](C)NC(=O)[C@H]([C@@H](C)O)NC(=O)[C@H](CCC(=O)O)NC(=O)[C@@H]3CCCN3C(=O)[C@H](C)NC(=O)[C@H](CCCCN)NC2=O)C(=O)N[C@@H](C)C(=O)N[C@@H](Cc2ccc(O)cc2)C(=O)N[C@@H](Cc2c[nH]c3ccccc23)C(=O)N1)C(=O)N[C@@H](Cc1c[nH]cn1)C(N)=O,"E3 ubiquitin-protein ligase Mdm2, residues 25-109 (MDM2, Homo sapiens, UniProt Q00987)",SPR competition,,added: immobilised p53 peptide,Kd,83.2 ± 8.4 nM

# Some of these lines once more:
Compound,target,assay,system,setting,quantity,result
CC(=O)N[C@@H](CCCCN)C(=O)N[C@@H](CCCCN)C(=O)N[C@@H](CCCCN)C(=O)NCCCCCC(=O)N[C@H](C(=O)N[C@@H](CO)C(=O)N[C@@H](Cc1ccccc1)C(=O)N[C@]1(C)CCCCCCCCCCC[C@@](C)(C(=O)N[C@@H](CCC(=O)O)C(=O)N[C@@H](CC(N)=O)C(=O)N[C@@H](Cc2ccccc2)C(N)=O)NC(=O)[C@H](CC(C)C)NC(=O)[C@H](CC(C)C)NC(=O)[C@H](C)NC(=O)[C@H](Cc2c[nH]c3ccccc23)NC(=O)[C@H](Cc2ccc(O)cc2)NC(=O)[C@H](CCC(=O)O)NC1=O)[C@@H](C)O,MDM2,"cell-free assay, FP",,pH 7.4,Kd,227 nM
